Experimental data of several laboratories.
Compare with care: the assays were run in different laboratories. “And” joins repeats or separate records; there may be more than shown. Numbers after ± are the reported error.

SMILES = O=C(CCc1cc(C(=O)c2ccc(OC3CCCC3)cc2O)ccc1OCc1ccc2c(O)noc2c1)NCCOCCOCCOCCOCCOCCOCCNc1cccc2c1C(=O)N(C1CCC(=O)NC1=O)C2=O (stereo not drawn); cell line = UMSCC1 cells; assay = RT-qPCR, item: FOSL1 target genes SNAI2, BMI1; setting = concentration not given, 16 h; quantity = mRNA level; value = inhibited
SMILES = Cn1cc(-c2ccc(-c3cncc(Cl)c3N3CCC4(CCNC4=O)CC3)cc2)cn1; cell line = COLO 205; assay = gene expression, microarray, item: CLU mRNA; setting = concentration not given, 2 h; scale = reference: untreated cells; quantity = log2 fold change; value = 1.46
SMILES = Cn1cnc2c(F)c(Nc3ccc(Br)cc3F)c(C(=O)NOCCO)cc21; cell line = A-375; setting = 0.1562 µM, 72 h; quantity = viability; value = 46.9%
SMILES = O=C(/C=C/C=C/C=C/C1CCCCC1)NC1=C[C@@](O)(/C=C/C=C/C=C/C(=O)NC2=C(O)CCC2=O)[C@@H]2O[C@@H]2C1=O; cell line = HT115; assay = cell growth, CellTiter-Glo; setting = 78 h; quantity = GI50; value = 12.7 µM
SMILES = Cc1nc(Nc2ncc(C(=O)Nc3c(C)cccc3Cl)s2)cc(N2CCN(CCO)CC2)n1; cell line = HD-MB03; assay = cell growth; setting = 168 h, single agent; quantity = IC50; value = > 10 µM
SMILES = COc1cnc2cccc(N3CCc4c(cc(Cn5ccnc5C)cc4-c4cn(C)nc4C(F)(F)F)C3=O)c2c1; cell line = BXPC-3; assay = cell growth, inhibitor; setting = 120 h; quantity = EC50; value = 19.8 µM
SMILES = CN(C)C(=O)c1cc2cnc(Nc3ccc(N4CCNCC4)cn3)nc2n1C1CCCC1; cell line = HD-MB03; assay = cell growth; setting = 168 h, single agent; quantity = IC50; value = > 10 µM
SMILES = O=c1[nH]nc(OCCCc2ccc(Cl)cc2)c(NCc2cccnc2)c1Br; cell line = HEK-293T; assay = RNA-seq GSEA, item: HALLMARK_GLYCOLYSIS; setting = concentration not given; scale = direction not given; quantity = normalized enrichment score; value = 1.34
SMILES = CCn1cc(-c2cc(Cn3ccnc3)cc3c2CCN([C@H](c2cc(OC)ccn2)C2CC2)C3=O)c(C(F)(F)F)n1; cell line = LCLC-97TM1; assay = cell growth, inhibitor; setting = 120 h; quantity = EC50; value = > 30 µM
SMILES = c1ccc2[nH]ccc2c1; cell line = HCT-8; assay = RNA-seq, item: FBXO32; setting = concentration not given; quantity = mRNA level, LS mean; value = 15.8 counts per million
SMILES = Nc1cc(C(F)(F)F)c(-c2cc(N3CCOCC3)nc(N3CCOCC3)n2)cn1; cell line = HD-MB03; assay = cell growth; setting = 168 h, single agent; quantity = IC50; value = 0.512 µM
SMILES = O=C1c2cccc3c2[C@H](CCC3)CN1[C@@H]1CN2CCC1CC2; cell line = primary rat hippocampal/cortical neuron-glia cultures; setting = 1 µM, added: 1 µM α-synuclein oligomers; quantity = reversal of trafficking deficit; value = -15.9%
SMILES = COc1cc(/C=C/C(=O)N2CCC=CC2=O)cc(OC)c1OC; cell line = MDA-MB-468; assay = qRT-PCR, item: PDK1; setting = 30 µM, 6 h; scale = reference: time zero; quantity = mRNA level; value = 93.4 ± 13.2%
SMILES = CCCCc1oc2ccc(NS(C)(=O)=O)cc2c1C(=O)c1ccc(OCCCN(CCCC)CCCC)cc1; cell line = human embryonic stem cell aggregates; assay = mRNA level, microarray, item: NTN4; setting = 0.5 µM, 120 h; scale = reference: untreated, up-regulated; quantity = fold change; value = 2 fold
SMILES = CC(C)(c1ccc(O)cc1)c1ccc(O)cc1; cell line = HepG2 spheroids; assay = planimetry; setting = 5 µM, 0 to 24 h; scale = reference: mean area of 72 h spheroids; quantity = spheroid area increase; value = 123%
SMILES = Cc1nn(-c2nc3c(F)cc(F)cc3s2)c(O)c1C(c1ccc(C(F)(F)F)cc1)c1c(C)nn(-c2nc3c(F)cc(F)cc3s2)c1O; cell line = RAW-ISG; assay = IFN luciferase reporter; setting = 1.25 µM, added: HT-DNA; quantity = inhibition; value = 19% and 20.7% and 13.8% and 25.8% and 24.8%
SMILES = Cc1cnc(NC2CCOCC2)nc1-n1cnc(C(=O)NC(CN)c2cc(F)cc(Cl)c2)c1 (stereo not drawn); cell line = A-375; assay = flow cytometry; setting = 1 µM, 72 h; quantity = S phase cells; value = 3.6%
SMILES = Cc1nc(NC(=O)N2CCC[C@H]2C(N)=O)sc1-c1ccnc(C(C)(C)C(F)(F)F)c1; cell line = HGC-27; assay = cell growth, CellTiter-Glo; setting = 120 h; quantity = Hill coefficient GR curve; value = 0.727
SMILES = CO[C@H]1C(=O)[C@]2(C)[C@@H](OC)C[C@H]3OC[C@@]3(OC(C)=O)[C@H]2[C@H](OC(=O)c2ccccc2)[C@]2(O)C[C@H](OC(=O)[C@H](O)[C@@H](NC(=O)OC(C)(C)C)c3ccccc3)C(C)=C1C2(C)C; cell line = HD-MB03; assay = cell growth; setting = 168 h, single agent; quantity = IC50; value = 0.00523 µM
SMILES = CC(C)C[C@H](NC(=O)N1CCCCCC1)C(=O)N[C@H](Cc1cn(C)c2ccccc12)C(=O)N[C@H](Cc1ccc(O)cc1)C(=O)O; cell line = PC-3 intact cells, vector; assay = radioligand binding; quantity = Kd; value = 0.000163 µM
SMILES = CCOC(=O)C1CCN(C(=O)c2ccc(N(CC)Cc3cnc4nc(N)nc(N)c4n3)cc2)CC1; cell line = 786-O; assay = high-content imaging, item: MitoTracker Red uptake; setting = 10 µM; quantity = mitochondrial toxicity; value = 14.5 ± 9.52%
SMILES = CCCCCCCC(=O)Nc1ncc(Cc2cccc(OCc3cn(CCOC)nn3)c2)s1; cell line = HGC-27; assay = cell viability, MTS; setting = 10 µM; quantity = inhibition; value = 44.2 ± 21.9%
SMILES = COC(=O)[C@]12CCC(C)(C)C[C@H]1[C@H]1C(=O)C=C3[C@@]4(C)C=C(C#N)C(=O)C(C)(C)[C@@H]4CC[C@@]3(C)[C@]1(C)CC2; cell line = HepG2; assay = high content imaging, item: nuclear size; setting = 24 h, distribution mode 2; quantity = point of departure; value = 3.31 µM
SMILES = CCn1cc(-c2cc(Cn3ccoc3=N)cc3c2CCN([C@@H](C)c2cc(OC)ccn2)C3=O)c(C(F)(F)F)n1; cell line = HGC-27; assay = cell growth, inhibitor; setting = 120 h; quantity = EC50; value = > 30 µM
SMILES = O=C(C[C@@H](C(F)F)n1ccc(F)n1)N1CCC(O)(Cn2cnc3c(cnn3-c3ccc(F)cc3)c2=O)CC1; cell line = CHP-212 parental (wild-type USP7); assay = PI flow cytometry; setting = 1 µM, 24 h; quantity = cells in G2/M phase; value = 5.62% and 9.76% and 13.1%
SMILES = COc1cc(Nc2ncc3c(n2)-c2ccc(Cl)cc2C(c2c(F)cccc2OC)=NC3)ccc1C(=O)O; cell line = HD-MB03; assay = cell growth; setting = 168 h, single agent; quantity = IC50; value = 0.0297 µM
SMILES = C=Cc1c2[n-]c(c1C)/C=c1\[n-]/c(c(C)c1C=C)=C\c1[n-]c(c(CCC(=O)O)c1C)/C=c1\[n-]c(c(C)c1CCC(=O)O)=C2.[Sn+4]; cell line = SH-SY5Y; assay = RNA-seq, item: FLNC mRNA; setting = 5 µM, 5 h; scale = reference: untreated cells; quantity = fold change; value = 1.82
SMILES = CC/C(=N\NC(=O)NCc1cccc(O)c1)c1ccc(O)c(C)c1O; cell line = SK-OV-3; assay = Western blot, item: LATS; setting = 5 µM, 1 h, 2D culture, unit not given; scale = reference: β-actin; quantity = protein level; value = 0.68 ± 0.47
SMILES = Cc1cnc2ccc3c(c2n1)N1CCC(O)N=C1N3C (stereo not drawn); cell line = BALB/c 3T3; assay = colony formation; setting = 5 µM; quantity = plating efficiency; value = 13%
SMILES = Cn1c(Nc2nc3ccc(C(F)(F)F)cc3s2)nc2cc(C(=O)NCCOCCO)ccc21; cell line = SH-SY5Y; assay = RNA-seq, item: TGM2 mRNA; setting = 5 µM, 5 h; scale = reference: untreated cells; quantity = fold change; value = 2.12
SMILES = Cc1cc(Nc2ncc(Cl)c(Nc3ccccc3S(=O)(=O)C(C)C)n2)c(OC(C)C)cc1C1CCNCC1; cell line = CLB-BAR; assay = phosphoproteomics LC-MS/MS, item: BAI2 phosphorylation; setting = 200 nM, 60 min; scale = reference: untreated; quantity = log2 fold change; value = -1.54
SMILES = Cn1ncnc1[C@H]1c2n[nH]c(=O)c3cc(F)cc(c23)N[C@@H]1c1ccc(F)cc1; cell line = HD-MB03; assay = cell growth; setting = 168 h, DMSO; quantity = IC50; value = 0.0266 µM
SMILES = Nc1cccc2c1C(=O)N(C1CCC(=O)NC1=O)C2=O (stereo not drawn); cell line = bone marrow CD138+ myeloma cells; assay = XTT; setting = 1 µM, mean of three patients; quantity = viability; value = 85%
SMILES = CO[C@H]1C[C@@H]2CC[C@@H](C)[C@@](O)(O2)C(=O)C(=O)N2CCCC[C@H]2C(=O)O[C@H]([C@H](C)C[C@@H]2CC[C@@H](OC(=O)C(C)(CO)CO)[C@H](OC)C2)CC(=O)[C@H](C)/C=C(\C)[C@@H](O)[C@@H](OC)C(=O)[C@H](C)C[C@H](C)/C=C/C=C/C=C/1C; cell line = HD-MB03; assay = cell growth; setting = 168 h, single agent; quantity = IC50; value = 0.155 µM
SMILES = NNc1nc(-c2ccc(Cl)cc2)c2c(NC(=O)c3ccccc3)nnc-2[nH]1; cell line = A549/ATCC; assay = NCI60 SRB; setting = 10 µM; quantity = growth percent; value = 102%
SMILES = O=C(O)COCC(=O)O; cell line = hepatocytes, iPSC-derived, W2 line; assay = cell viability, RealTime-Glo MT; setting = 72 h, differentiation day 23; quantity = IC50; value = 8440 µM
SMILES = CCOc1ccc(-c2nc3cc(-c4nc5cc(N6CCN(C)CC6)ccc5[nH]4)ccc3[nH]2)cc1OCC; cell line = SN12C; assay = SRB; setting = 10 µM, 48 h; quantity = growth percent; value = 20.8%
SMILES = COc1c(C)cnc(Cn2cnc3c(Cl)nc(N)nc32)c1C; cell line = HD-MB03; assay = cell growth; setting = 168 h, DMSO; quantity = IC50; value = 0.15 µM
SMILES = O=C(c1ccc2[nH]ccc2c1)N1CCN(S(=O)(=O)c2ccc3[nH]c(=O)oc3c2)CC1; cell line = HL-60; assay = NUDT15 inhibitor, mass spectrometry; setting = 10 µM, 16 h, added: 6-thioguanine 1 µM; scale = higher = more incorporation; quantity = 6-thio-dGTP in DNA; value = 2890 a.u.
SMILES = CC1=CC[C@H]2[C@@H]([C@@H]1CC[C@H]1[C@]3(C)CC[C@H](O)C(C)(C)O[C@H]3CC[C@]1(C)O)C(C)(C)CC[C@]2(C)O; cell line = KB-C2 (P-gp overexpressing); assay = drug efflux; setting = 10 µM, 60 min; quantity = intracellular [3H]-paclitaxel remaining; value = 61%
SMILES = Cc1ccc(CNC(=O)Cn2cc(CSc3nc4ccccc4[nH]3)nn2)cc1; cell line = Caco-2; assay = MTT; setting = 7.81 ppm; quantity = cytotoxicity; value = 49.3%
SMILES = Cc1cc(Nc2ncc(Cl)c(Nc3ccccc3S(=O)(=O)C(C)C)n2)c(OC(C)C)cc1C1CCNCC1; cell line = NCI-H3122 (EML4-ALK variant 1); assay = cell viability; quantity = Emax; value = 78.1%
SMILES = Cc1cccc(C)c1NC(=O)C(C)N (stereo not drawn); cell line = primary rat hippocampal/cortical neuron-glia cultures; setting = 1 µM, added: 1 µM α-synuclein oligomers; quantity = reversal of trafficking deficit; value = -15%
SMILES = Cn1cc(Nc2nccc(-c3ccc4c(c3)CN(C3COC3)CC[C@H]4NC(=O)c3cn(C(C)(C)C)nn3)n2)cn1; cell line = mouse splenic B cells; assay = item: AMPK signalling; setting = 30 mg/kg, IgD-activated in vivo; scale = reference: vehicle, direction not given; quantity = pathway activation z-score; value = 3.53
SMILES = Cc1cccc(-c2[nH]c(CNc3ccccc3F)nc2-c2ccc3ncnn3c2)n1; cell line = MM1.S; assay = XTT; setting = 1.5 µM; quantity = viability; value = 45% and 47% and 39%
